Measurements from different studies.
Every numbered part comes from another study and shows a few of its results, in no order. “And” joins repeats or separate records; there may be more than shown. Substitutions count along the parent as printed.

Block 1
Target: OGT, full length, His-tagged (human)
Technique: phage display, sequencing
Sample: in vitro
Tested at: 1 µg OGT
Notes: single substitutions, 15-mer displayed peptide, unchanged parent 6.14
Baseline: input library
Direction: higher = stronger binding
Quantity: fold enrichment
Starting sequence: peptide; VAYPNSYMPKYQIST
Variant = GAYPNSYMPKYQIST [V1G]; result = 7.04 fold
Variant = VAYGNSYMPKYQIST [P4G]; result = 7.32 fold
Variant = VAYPNSYKPKYQIST [M8K]; result = 1.64 fold
Variant = VAYPWSYMPKYQIST [N5W]; result = 5.42 fold
Variant = VAYPNSYMPKYQISQ [T15Q]; result = 0.676 fold
Variant = VAYPFSYMPKYQIST [N5F]; result = 7.92 fold
Variant = VAYPNSHMPKYQIST [Y7H]; result = 0.689 fold
Variant = VAYPNSYMPKYQIIT [S14I]; result = 15.5 fold
Variant = VAYPNSYAPKYQIST [M8A]; result = 3.92 fold
Variant = VAYPNSYMPLYQIST [K10L]; result = 3.6 fold
Variant = VAYPVSYMPKYQIST [N5V]; result = 4.22 fold
Variant = VAYPNSYMPKYQIPT [S14P]; result = 2.61 fold
Variant = VWYPNSYMPKYQIST [A2W]; result = 0.379 fold

Block 2
Target: Interferon regulatory factor 5, full length, phosphomimetic (IRF5, Homo sapiens, UniProt Q13568-2, residues 1-514, S451D/S453D/S456D/S462D)
Technique: protein-binding microarray
Form: double-stranded DNA, one strand shown
Sample: in vitro
Tested at: 940 nM top
Notes: 60-bp whole probe
Added: salmon DNA 0.4 mg/ml
Baseline: random background probes
Direction: higher = stronger binding
Quantity: fitted relative affinity
All sequences stand within: GCCTAGCAC … GTCTTGATTCGCTTGACGCTGCTG
Sequence = ATTGCTTCCTCTTTCACTGCGTGCTAG; result = 1.25 z-score
Sequence = TTAGGTATCCTTAACCTTTAGTGCTAG; result = 0.272 z-score
Sequence = TTAGAACTGGGTCTCGATTAGTGCTAG; result = 1.15 z-score
Sequence = GACGAAGTGAGACTGGAGACGTGCTAG; result = -0.321 z-score
Sequence = TCATATTAAAATTTAATACTGTGCTAG; result = 0.168 z-score
Sequence = TTACGTCTCGGACTGGGTTAGTGCTAG; result = 1.4 z-score
Sequence = GACGGTTTCGACTTTCGGCACGTGCTA; result = 7.14 z-score
Sequence = AGATGCCAAGAGGCATGATGGTGCTAG; result = -0.625 z-score
Sequence = GACGGCTTCGACTTTCGGGACGTGCTA; result = 0.412 z-score
Sequence = GACGGTATCGACTTTCGGGACGTGCTA; result = 4.12 z-score
Sequence = GACGGACCGCTTTTCCTGACGTGCTAG; result = -0.532 z-score
Sequence = GGCTGTTTGGTTCTGATCCTGTGCTAG; result = 0.0995 z-score
Sequence = GGCGGTTTCCTTTTCCTGACGTGCTAG; result = 2.93 z-score
Sequence = CTAGGACTGGACTTTCGGTTAGTGCTA; result = 2.39 z-score
Sequence = TTAGGTATCGGTCTCGGTGAGTGCTAG; result = 9.52 z-score
Sequence = GACGATATCGACTTTCGGGACGTGCTA; result = 1.05 z-score
Sequence = AAGGGTCTCTTGTTCTCTCTGTGCTAG; result = 0.578 z-score
Sequence = GACGGACCGGGGTTTCGGGACGTGCTA; result = 2.13 z-score
Sequence = TTAGGTATAGGTTTCGGTTAGTGCTAG; result = 7.69 z-score

Block 3
Target: CCNB3, cyclin fold, Cln2 fusion (human)
Technique: yeast growth competition, sequencing
Sample: yeast
Notes: weak parent motif
Baseline: not given
Direction: higher = stronger binding
Quantity: normalised enrichment score
Starting sequence: SLBP docking peptide (human); ARYKRKLLINDFG
Variant = L7G; result = 0.0251
Variant = K4F; result = 0.47
Variant = N10H; result = 0.213
Variant = I9D; result = -0.2
Variant = L7K; result = -0.00376
Variant = L8I; result = 0.11
Variant = D11R; result = 0.179
Variant = K4E; result = 0.112
Variant = R5K L8F; result = 0.491
Variant = A1N; result = 0.355
Variant = N10R; result = 0.00458
Variant = Y3G; result = 0.00713
Variant = L8M; result = 0.54
Variant = G13C; result = 0.504
Variant = R2Y; result = 0.57
Variant = I9T; result = 0.0514
Variant = D11M; result = 0.874

Further values, each from its own experiment
Substance = PhoQ, residues 284 288 289 292 302 303 SACGEM; target = PhoP, residues 12 14 15 18 19 LWHSL (Escherichia coli, UniProt P23836); assay = Sort-seq, item: YFP reporter; system = E. coli; setting = PhoQ-PhoP variant library, added: 10 µM Mg2+; scale = baseline: high Mg2+ state, higher = stronger signaling; quantity = fold induction; result = 11.3 and 15.5

For quick reference, copied from above (block 1):
Variant = VAYPNSHMPKYQIST [Y7H]; result = 0.689 fold
Variant = VAYPNSYMPKYQIIT [S14I]; result = 15.5 fold
Variant = VAYPNSYAPKYQIST [M8A]; result = 3.92 fold
